Experimental data of several laboratories.
A part holds a random share of what one study measured.

Study 1
Target: Sal-like protein 4, full length isoform A (SALL4, Homo sapiens, UniProt Q9UJQ4, residues 1-1053)
Chain of UniProt Q9UJQ4 (whole entry, looked up): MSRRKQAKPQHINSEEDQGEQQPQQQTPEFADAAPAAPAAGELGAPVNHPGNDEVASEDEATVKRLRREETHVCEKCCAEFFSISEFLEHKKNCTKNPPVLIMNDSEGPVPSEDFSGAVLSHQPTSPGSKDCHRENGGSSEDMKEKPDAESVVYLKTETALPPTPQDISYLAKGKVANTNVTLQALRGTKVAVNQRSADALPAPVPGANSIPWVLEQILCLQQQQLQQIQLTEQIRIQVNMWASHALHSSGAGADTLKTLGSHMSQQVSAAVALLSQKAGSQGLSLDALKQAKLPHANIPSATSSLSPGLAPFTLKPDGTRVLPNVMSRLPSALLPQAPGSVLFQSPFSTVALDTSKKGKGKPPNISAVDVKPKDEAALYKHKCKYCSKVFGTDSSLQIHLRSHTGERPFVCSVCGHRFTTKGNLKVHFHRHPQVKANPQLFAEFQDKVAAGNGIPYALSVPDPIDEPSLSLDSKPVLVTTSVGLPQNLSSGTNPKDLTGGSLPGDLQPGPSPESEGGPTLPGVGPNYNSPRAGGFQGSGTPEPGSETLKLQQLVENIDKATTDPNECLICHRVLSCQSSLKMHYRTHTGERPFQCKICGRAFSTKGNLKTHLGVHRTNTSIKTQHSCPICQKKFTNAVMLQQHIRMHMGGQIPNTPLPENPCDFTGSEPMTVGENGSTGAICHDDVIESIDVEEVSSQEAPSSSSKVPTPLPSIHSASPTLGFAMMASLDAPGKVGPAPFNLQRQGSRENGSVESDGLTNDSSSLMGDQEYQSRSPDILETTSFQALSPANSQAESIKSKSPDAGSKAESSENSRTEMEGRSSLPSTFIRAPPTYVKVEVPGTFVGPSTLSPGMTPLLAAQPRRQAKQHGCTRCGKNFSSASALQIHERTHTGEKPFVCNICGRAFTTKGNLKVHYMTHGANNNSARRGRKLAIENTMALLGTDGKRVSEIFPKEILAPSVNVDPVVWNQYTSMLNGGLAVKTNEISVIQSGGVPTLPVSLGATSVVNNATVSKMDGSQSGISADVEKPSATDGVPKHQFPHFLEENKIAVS
Method: universal PBM
Form: double-stranded DNA, one strand shown
Medium: in vitro
Concentration: 600 nM
Setting: 8-mer, flanks averaged, mean of replicates
Direction: higher = stronger binding
Quantity: E-score
CCATACCC: -0.16
CTCCGCCA: -0.24
AACCGGGG: -0.393
TCCAAAAA: 0.284
TGAGTACA: 0.137
ACTGATAA: 0.306
AGATGGCG: -0.173
CCACTGTA: 0.033
GACCACAA: -0.0948
GCACGGGC: -0.365
CGGGTGGA: -0.297
AATAGGTG: 0.105
AATCAGCC: -0.187
GTCCGTAA: -0.0838
ACTAACCC: -0.152
AAAGGTAG: 0.0571

Study 2
Target: Ras GTPase-activating protein-binding protein 1, C-terminal RGG region (G3BP1, Homo sapiens, UniProt Q13283)
Chain of UniProt Q13283 (whole entry, looked up): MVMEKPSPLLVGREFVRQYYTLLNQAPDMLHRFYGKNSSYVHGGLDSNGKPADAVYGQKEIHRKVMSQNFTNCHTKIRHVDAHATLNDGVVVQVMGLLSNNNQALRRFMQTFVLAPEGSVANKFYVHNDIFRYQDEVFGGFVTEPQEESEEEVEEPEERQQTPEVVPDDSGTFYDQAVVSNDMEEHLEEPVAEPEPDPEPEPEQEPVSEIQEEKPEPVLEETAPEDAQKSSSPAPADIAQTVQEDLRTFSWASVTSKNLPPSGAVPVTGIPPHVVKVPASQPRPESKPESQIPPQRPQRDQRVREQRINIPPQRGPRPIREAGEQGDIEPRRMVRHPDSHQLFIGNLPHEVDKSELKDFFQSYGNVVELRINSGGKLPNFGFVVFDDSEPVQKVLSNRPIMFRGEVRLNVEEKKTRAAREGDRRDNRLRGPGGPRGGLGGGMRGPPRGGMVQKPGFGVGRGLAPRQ
Method: RNA Bind-n-Seq
Form: RNA
Medium: in vitro
Concentration: 1 µM
Setting: whole 134-nt RNA, ends assumed
With: 150 mM KCl
Baseline: input library
Direction: higher = stronger binding
Quantity: log2 enrichment
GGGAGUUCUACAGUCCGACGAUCCCUGUGCUACACAUCGUAUGUACCGAAUCGGGAAAAAAAGGGAAAAAGGGUUUUUUUGGGAAAGUAUUAUGUUACGCCGUUCGGAUCUGCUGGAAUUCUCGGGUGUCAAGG: -1.58
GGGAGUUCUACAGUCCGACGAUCGCAGGAAGUAAAAACAAAUGGAAAUGCUUCGGAUAGUGGCAGGGGUGGGGGUUGCUAAGGAACGGGUGGGAUGGGAGUGGGUAAAGAGUUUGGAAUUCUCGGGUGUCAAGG: 1.77
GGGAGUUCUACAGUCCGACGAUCCUCAAGUCCUGUGCUACACAUCGUAUGUACCGAAUCGGAAAGGUUUUUGGAGGAAAGUAUUAUGUUACGCCGUUCGGAUCUGCACUUCCAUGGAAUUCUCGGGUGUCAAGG: -1.24
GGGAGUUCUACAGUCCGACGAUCCUCAAGUCCUGUGCUACACAUCGUAUGUACCGAAUCGGUUGGGUUGGGGUUGGGAAAGUAUUAUGUUACGCCGUUCGGAUCUGCACUUCCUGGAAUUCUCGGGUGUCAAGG: 0.448
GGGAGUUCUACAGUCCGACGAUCCAAGUCCUGUGCUACACAUCGUAUGUACCGAAUCGGGCCCGGGCCCGGGCCCGGGGAAAGUAUUAUGUUACGCCGUUCGGAUCUGCACUUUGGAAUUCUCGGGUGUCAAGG: -1.83
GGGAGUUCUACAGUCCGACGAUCUCAAGUCCUGUGCUACACAUCGUAUGUACCGAAUCGGUUUGGAAAAAAAGGUGGAAAGUAUUAUGUUACGCCGUUCGGAUCUGCACUUCCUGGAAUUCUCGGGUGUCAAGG: -1.22
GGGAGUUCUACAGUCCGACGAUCCUCAAGUCCUGUGCUACACAUCGUAUGUACCGAAUCGGGUUUGGGAGGGUGGGAAAGUAUUAUGUUACGCCGUUCGGAUCUGCACUUCCAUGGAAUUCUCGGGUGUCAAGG: 2.21
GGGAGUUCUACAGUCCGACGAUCCUCAAGUCCUGUGCUACACAUCGUAUGUACCGAAUCGGGAAGGAAGGGGAAGGGAAAGUAUUAUGUUACGCCGUUCGGAUCUGCACUUCCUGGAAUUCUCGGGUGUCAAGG: 0.969
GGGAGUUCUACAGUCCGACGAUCCCUGUGCUACACAUCGUAUGUACCGAAUCAAACCCCCAAACCCCCCCAAAUUUUUUUAAAAAAGUAUUAUGUUACGCCGUUCGGAUCUGCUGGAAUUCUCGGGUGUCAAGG: -0.973

Study 3
Target: RNA binding protein fox-1 homolog 2, RRM domain, GST-SBP tag (RBFOX2, Homo sapiens, UniProt O43251-10, residues 100-194)
Method: RNA Bind-n-Seq
Form: RNA
Medium: in vitro
Concentration: 365 nM
Setting: natural RNA segment, single round, ends assumed
Baseline: no-protein control
Direction: higher = stronger binding
Quantity: RBNS enrichment (R)
Residues (chain): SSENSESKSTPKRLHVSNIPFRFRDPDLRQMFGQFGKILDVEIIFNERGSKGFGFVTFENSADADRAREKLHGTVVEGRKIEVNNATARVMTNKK
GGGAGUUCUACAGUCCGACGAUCGAUCCUCCGCCGCCACACCGCACUGAGGACACGCCGGCCGGGCCGCCUCGUCUCAAGUUGUAUAAAGUUGUCUCCGUGUCCCCUCCUCCCUCUGCCCCCAGUGUUUCUUCUGGAAUUCUCGGGUGCCAA: 0.174
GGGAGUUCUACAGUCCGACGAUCCAAAGAUGAAGUCUCACCUUCCAGUUUGCUUUCUCAUUAGUUUUUUCCAAAGUAAGUUAUUGAAGCUGUGAUUGACAUUUUUCUCAUAAUGAAUCCUCUCAGGACAUUGUUGGAAUUCUCGGGUGCCAA: 0.512
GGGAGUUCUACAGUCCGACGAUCCUGGAGGGGAAGGUGGGUGGGCGUUCUCUAAGGCACAACACCCCAAAGGCCGACUGUACCCAUGAGAGGUGCCUCACAGCAGGAGACUAAGAUCUGUUGAUGCUCUGAGGUGGAAUUCUCGGGUGCCAA: 0.643
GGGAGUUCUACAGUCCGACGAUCGAGUCCUAGGUAUGAACCCAAAAGCCCUGGGUACGGUUCAAAGAGCCCCGAAUUUGAAUCUCAAAGUCCAGGGUAUGAAUCUCAGAGCCCCGGGUAUGAACCGCAGAACUUGGAAUUCUCGGGUGCCAA: 0.304
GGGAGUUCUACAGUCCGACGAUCUAUAAACCCUGUAUGUGUUUAUAUGUGCUUCACAGAGUUCGUGUCAGGCUCAAAGGAGAUAUGUAUAAGAAAGUGGUUUGUAAAUUAUGUUCCAUUUCAUAAAUAGACACUGGAAUUCUCGGGUGCCAA: 1.39
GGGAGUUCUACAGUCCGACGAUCACCACUACACUUGUAUGGUUGAGUGUUUAAAAUGUCUAUCACCCUCACUUCAGAGUGUGACUCUUUAAAUAUUAAAAUAGAUACUAACUGUUCAUAGAACAGGCCGAUUCUGGAAUUCUCGGGUGCCAA: 0.228
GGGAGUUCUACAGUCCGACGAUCAUUGUGCAUGGAACUAAAAUGUUAUUGCCUAAUCACUCCAACCCUGCCCCUUUCUGUCCCAUCCUUCCCAAGAAGAGAGAACUUUUUCGAUAAACUAACUACUGUAGAAGUGGAAUUCUCGGGUGCCAA: 1.77
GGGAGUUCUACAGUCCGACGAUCUCCAGAGAGCAAAGCCCUGGGACUGGAUUUCCCUGUGCCUACUUCAUGAUCAUGAAUUCCAGUUAAUUUAUAAAGAGGCGAUUUUUGUGUGCCAUUCACACUGGUCUUUUUGGAAUUCUCGGGUGCCAA: 0.622

Study 4
Target: RING finger protein unkempt homolog, zinc fingers 1-6, SBP tag (UNK, Homo sapiens, UniProt Q9C0B0, residues 30-357)
Chain of UniProt Q9C0B0 (30-357, looked up): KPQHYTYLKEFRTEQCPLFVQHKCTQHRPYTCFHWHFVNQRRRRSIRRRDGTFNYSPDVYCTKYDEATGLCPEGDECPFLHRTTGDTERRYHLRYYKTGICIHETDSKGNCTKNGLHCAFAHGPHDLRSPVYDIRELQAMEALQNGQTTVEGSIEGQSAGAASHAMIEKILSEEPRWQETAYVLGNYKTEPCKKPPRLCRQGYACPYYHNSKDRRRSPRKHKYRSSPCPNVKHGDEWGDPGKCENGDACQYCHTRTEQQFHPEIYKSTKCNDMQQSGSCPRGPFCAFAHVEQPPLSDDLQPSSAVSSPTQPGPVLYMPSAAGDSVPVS
Method: RNA Bind-n-Seq
Form: RNA
Medium: in vitro
Concentration: 100 nM
Setting: RNA with constant flanks, vertebrate orthologous sites, ends assumed
Baseline: input RNA pool
Direction: higher = stronger binding
Quantity: bound/input enrichment
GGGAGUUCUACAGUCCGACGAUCACGGGUGUACCUGUGGGGCCCUGCUGGCCACUUAGCGUCGUUUGAUUUGUGACCUUGACAUAAUAGAUAGGCUUGUUGUUUUUUAAUUUAAAGAUAUUAAGACUUAAUUCACUAAAAUUUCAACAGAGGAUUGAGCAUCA: 0.43 ratio
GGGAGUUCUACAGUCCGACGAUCGAUUUGGACCUUGGAGCUGAACCAGUGAGCUAGCAAAAGUAAAGCAGCCUUGUAAAAUUAUAGCUAUAUGCAGCUGCACAACACAGUCCUACCACUAGCAGCUGUGUUAAAGUAUUUAUACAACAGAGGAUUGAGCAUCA: 0.608 ratio
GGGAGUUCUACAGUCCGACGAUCUCUCCUCACACUCUUACAUGAGUGGAUUAUUAUUUUCUUUUUUUUUUUACAUUUUUGUAUAGAAAACAAAUUCAUUUAAACAAACUUAUUAUUAUUAUUUUUUACAAAAUAUAUAUAUGGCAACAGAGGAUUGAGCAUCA: 3.98 ratio
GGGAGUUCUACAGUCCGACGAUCUCCAUGGCUGCUUUGUAUUACCUCAGUGAGUUACAGCCCCCCUUGGCAUUUAGUUGGUACUAGAGCCAGUCAUCCUUAACAAAUCUUUUCACAUUUUAUUUCUUUCACACAUAGUCAUCUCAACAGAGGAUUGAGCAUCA: 3.87 ratio
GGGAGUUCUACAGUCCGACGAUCGUGGCACCCCCUGUGAGAGGGAGUGGGGGGAGCCCAGGAUGACCCUCAGUUGUUCCAAUCCAGUAUUUUUUCCUUUUUAAAAAAAAAAAAAUUACUGUAUUUAUUAUGACGAUGGUGACUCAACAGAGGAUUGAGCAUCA: 0.537 ratio
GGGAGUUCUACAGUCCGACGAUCCCCCGAUUUUAGAUGUGAUAUUUAGGCUUUCAUUCCAGUUUGUUUUUGUCUUCUCUUGUUUAGAUACCAAUCUUUUAAAUUCUUGCAUUUUAGUAAGAAAGCUACCUUUUUAUGGAUGUUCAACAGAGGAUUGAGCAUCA: 1.95 ratio
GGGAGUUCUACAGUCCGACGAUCAAAAAAUUAAAGACGCUUGUUUGCACACCUUUUUCCCAUUGGAAAUGGAAUCCACUGCCUUAGGUCUUUUUAAAUAGUGUAUUAUUAUCGUUGGGGCUGGCUCUAUGCUUGAAAACCAGUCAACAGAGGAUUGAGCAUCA: 1.68 ratio
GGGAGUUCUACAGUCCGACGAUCGUAUCAGUAGACUUACAAAUACUAAAGUUGCAGUUGAAAGGAUAUCCAAGUAUGUGUUGGUAGUUACUAAAAGAAUUCUAGCUGUUAUUGCCUUGUAUUUAUAGCCCUUGUUUCAGGUUUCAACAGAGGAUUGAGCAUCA: 0.599 ratio

Study 5
Target: Histone acetyltransferase KAT6A, winged helix 2, GST fusion (KAT6A, Homo sapiens, UniProt Q92794, residues 85-181)
Method: protein binding microarray
Form: double-stranded DNA, one strand shown
Medium: in vitro
Concentration: not given
Setting: 8-mer, flanks averaged, mean of 2 arrays, mostly near background
Baseline: not given
Direction: higher = stronger binding
Quantity: E-score
Target sequence (chain): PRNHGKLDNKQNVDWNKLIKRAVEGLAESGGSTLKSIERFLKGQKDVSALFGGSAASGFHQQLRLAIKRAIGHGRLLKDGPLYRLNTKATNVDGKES
ACGGAGAA: -0.0339
AACATAGT: -0.157
GATGCCCC: -0.0194
GGTCCATA: -0.163
CAAGACCC: -0.101
GGCGTCGA: 0.261
ATACTGAG: -0.0524
GACTTTTA: -0.279
GGCTGGAA: 0.0842
CAGCTGGA: -0.0141
GATGGAAC: 0.0429
AGGTCAAC: 0.0397
AAATTCAC: -0.0365
ACCCGTCG: 0.0839
CCTCCCGA: 0.12
ACGGAGCA: -0.0134
CGAACAAG: -0.023
AACTCCAT: -0.185
ACTGCAAC: -0.141
GGAAAGAC: -0.135
AACAGACG: -0.121
AGTATCGC: 0.0408
AATCGGAA: 0.083
CCGCATAG: 0.119
AGAGGTTA: -0.0366

Some of these lines once more (study 5):
CCTCCCGA: 0.12
ACGGAGCA: -0.0134
CGAACAAG: -0.023
AACTCCAT: -0.185
ACTGCAAC: -0.141
GGAAAGAC: -0.135
